# Published values collected from several papers.
# Each numbered part is a random draw from the data of one study; scales do not carry over between parts. Changes are numbered by the printed parent chain.

# Series 1
# Target: RNA binding protein fox-1 homolog 2, RRM domain, GST-SBP tag (RBFOX2, Homo sapiens, UniProt O43251-10, residues 100-194)
# Technique: RNA Bind-n-Seq
# Molecule type: RNA
# Sample: in vitro
# Tested at: 365 nM
# Setting: natural RNA segment, single round, ends assumed
# Reference: no-protein control
# Reading: higher = stronger binding
# All sequences stand within: GGGAGUUCUACAGUCCGACGAUC … UGGAAUUCUCGGGUGCCAA
# Construct (chain): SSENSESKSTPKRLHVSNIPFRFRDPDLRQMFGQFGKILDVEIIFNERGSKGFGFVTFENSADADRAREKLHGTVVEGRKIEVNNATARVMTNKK
Oligonucleotide,RBNS enrichment (R)
GUCACCUCGGUCAUGCGCCCAGACAACAGACGACGAAAACACCCGUGCCGAUCUCGUGUUCUUUCCUGGAUCACAGACAUUAACAAAAAAGUUAAUUUAUGUGACUUGGC,0.206
ACUGUUAGGGUACAUACGCUACCUUGAUGAAAGGGACCUUCGUGCAACUGUAGUCAUCUUAAAGGCUUCUCAUCCACUGUGCUUCUUAAUGUGUAAUUAAAGUGAGGAGA,0.25
AGGUACAUCUUUUUUUCCUUACUGAAAACAAAUAUGGAUUAAUUGCCUCAAAUUUGUAUAAGUGAUUGGCUAGUGAUUCUUGUUUUCAGAAGGGAGAGUGGUAUAGAUAG,0.445
UUUGGCCUGGUCCCAGGGGCCAGAGCUGGCAGUGGCUCCCAGAGCUCUGUCCAGCCACAAGUUUGAGCAGAGGAUGUGGGGACCUCCCACAGGACACUGCUCCAACCCAA,0.284
CAAUCCUCUACCAUCCUGCAGCUGAAAUGGGAACACUGGCUGCCUCUCUAAACCUAAACUCUUGGAUAGAGUUUCUGGGAGGUGGAGGCUGGACUAGAGAACUGGGGGAG,0.571
GAAACUUAAACAUAUAAAAACAUCUAACUGCUUUGUCCUUUUUUAAUUUCAAUAUGUUUAUACUGGUGACUUUUAAGUCAUCUUGUAUUAUCCUGGGUAGGGUGAAAACC,0.666
CCGAGGAGGAGGUCCCCUGGGCACAGGGCCUCUUUGGGACUUCAGAGGAAAUCUCCCAGUCCCACUCUCGGAGGGUUAAGAGAAGGCCUCCUGCAGCUGUGCCGUCCACA,0.381
CUGAGGAAGCUGUGGUAACCAUUUCCCCACUCAUUCUGAGAGCCUUCUGUAAGCACUGACCUGGGUAAGGCAGAGGGUAGGAGUCACCAUCCCUCCUCUGCCAAUAUCGC,0.283

# Series 2
# Target: CCNB3, cyclin fold, Cln2 fusion (human)
# Technique: yeast growth competition, sequencing
# Sample: yeast
# Setting: weak parent motif
# Reference: not given
# Reading: higher = stronger binding
# Starting sequence: SLBP docking peptide (human); ARYKRKLLINDFG
Variant,normalised enrichment score
L8R,-0.422
R2I,0.462
D11F,0.155
Y3M,0.357
R5L,0.562
A1K,-0.39
L7W,-0.299
F12A,0.202
A1M,0.57

# Series 3
# Target: Interferon regulatory factor 7, full length, phosphomimetic (IRF7, Homo sapiens, UniProt Q92985, residues 1-503, S471D/S472D/S475D/S476D/S477D/S483D/S484D/S487D)
# Technique: protein-binding microarray
# Molecule type: double-stranded DNA, one strand shown
# Sample: in vitro
# Tested at: 2200 nM top
# Setting: 60-bp whole probe
# With: salmon DNA 0.4 mg/ml
# Reference: random background probes
# Reading: higher = stronger binding
# All sequences stand within: GCCTAGCAC … GTCTTGATTCGCTTGACGCTGCTG
# Construct (chain): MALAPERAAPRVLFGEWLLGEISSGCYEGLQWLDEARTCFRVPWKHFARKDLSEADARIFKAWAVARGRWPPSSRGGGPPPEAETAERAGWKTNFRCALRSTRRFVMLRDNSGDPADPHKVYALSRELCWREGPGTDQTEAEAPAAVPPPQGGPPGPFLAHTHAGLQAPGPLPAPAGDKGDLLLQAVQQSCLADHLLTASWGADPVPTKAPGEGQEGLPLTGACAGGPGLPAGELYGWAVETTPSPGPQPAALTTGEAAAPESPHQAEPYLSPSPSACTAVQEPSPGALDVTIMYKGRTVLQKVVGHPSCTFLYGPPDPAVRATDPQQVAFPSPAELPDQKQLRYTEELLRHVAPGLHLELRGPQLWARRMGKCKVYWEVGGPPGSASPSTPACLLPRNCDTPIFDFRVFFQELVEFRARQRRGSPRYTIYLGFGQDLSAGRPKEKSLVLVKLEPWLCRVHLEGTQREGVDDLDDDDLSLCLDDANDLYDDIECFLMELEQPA
Oligonucleotide,fitted relative affinity [z-score]
TTAGGTATCGACATTCGGTTAGTGCTA,1.55
GCCGGTCTCCTTTTCCTGACGTGCTAG,1.33
GACTGTATCGGTTTCGGGACGTGCTAG,3.75
GACGTACTGGGTCTCGGGACGTGCTAG,-0.254
TTTTTTTTTTACTTCGGGTGGTGCTAG,1.99
GACGGTTTCGGGCTCGGGACGTGCTAG,3.16
GACGGTTTCCGTTCCGGGACGTGCTAG,4.65
GACGGACTGGACCTTCGGGACGTGCTA,-0.912

# Single results of other studies
Molecule,target,assay,system,conditions,how to read,quantity,value
"PhoQ, residues 284 288 289 292 302 303 AEGLLW","PhoP, residues 12 14 15 18 19 HLGGL (Escherichia coli, UniProt P23836)","Sort-seq, measured: YFP reporter",E. coli,"PhoQ-PhoP variant library, with: 10 µM Mg2+","reference: high Mg2+ state, higher = stronger signaling",fold induction,3

# Excerpt of the above (series 2):
Variant,normalised enrichment score
L8R,-0.422
R2I,0.462
D11F,0.155
Y3M,0.357
